Measurements of several laboratories.
A part holds a random share of what one study measured.

Study 1
Target: RNA binding protein fox-1 homolog 2, RRM domain, GST-SBP tag (RBFOX2, Homo sapiens, UniProt O43251-10, residues 100-194)
Technique: RNA Bind-n-Seq
Form: RNA
Sample: in vitro
Concentration: 365 nM
Setting: natural RNA segment, single round, ends assumed
Reference: no-protein control
Reading: higher = stronger binding
Constant ends, left off below: GGGAGUUCUACAGUCCGACGAUC … UGGAAUUCUCGGGUGCCAA
Construct (chain): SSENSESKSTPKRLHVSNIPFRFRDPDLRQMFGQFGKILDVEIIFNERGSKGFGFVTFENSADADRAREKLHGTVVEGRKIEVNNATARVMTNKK
Strand	RBNS enrichment (R)
GGUACAAGUGGCAACCUGCUUCCAUGGCCGUGUAGAAGCAUGGUGCCCUGGCUUCUCUGAGGAAGCUGGGGUUCAUGACAAUGGCAGAUGUAAAGUUAUUCUUGAAGUCA	0.744
AGCACUUAUGUUUACGGAUAUUUUAAACUCUGUUAGAGAGCAGCCUUUGAAAAUCCCCAAUUUGGUUCUGCUUUUUGACCUCUCUCUACCUUUUCAGGGUAAUCUUUGUG	0.505
GCUUAAUAUGUGCCAGGCAUAGUGCUAAGGGUUUACAUACGUUAUCCCUUUUAAUCCAGAAAACAGCCUUUGAUUAGGUAUUGUUGUCUCCAUUUUAUAGAUGAGGAAAC	0.296
CCUUGAUGUAGGUGUUUCAAGUGAACUUUAGACCAACAGUUGCCCAGUGACCUGCUAAAAAGUCAACUAGCUCAGAGUUUUGCUGGCCUUUAUGUGAGAAAUCCAAGAAA	0.548
CUGGAUAGCAGCUAAGGGGACAGACUCUGGAUGUGAGUCUUAGUUUAAAAAGGAAACUACAUGGAGACCAUGCAAAAACAUUUAAAUAAUCCACUGUGCUGUGGCUCGCU	0.552
GCCAGUGGUGAACAGUGUCUGAUCAUGUGAAACACAACACGUUUUCCUCUCUGAGUCCCAGCUAUGGGGAACAUCUGGAGUCAGCAGAACCAUUGGGACCUGAGGCAGGA	0.385
AGGCUUCCCAUUGCUGCUGCUACCGGUUCUCCACAGAUCCCUGUGGUCCGCCAUCGCCGACACACACACACGUCGUAAUGUGGCUAACGCUUGACUCACUUAACACUACU	0.332
UUAAAGUGAGAUUAAUUUAGCUGUAAUUUGGUUAAAAACUUCCUAAGAGAGAAAAUUAAGUCUACUGAUUUGGUAUAGGUAAAUGGACAUUAAACUUUUUUAAAGUAAAG	0.431

Study 2
Target: Protein C-ets-1 (ETS1, Homo sapiens, UniProt P14921, residues 1-441, K379A, full length assumed)
UniProt P14921, sequence (whole entry, unmodified, looked up): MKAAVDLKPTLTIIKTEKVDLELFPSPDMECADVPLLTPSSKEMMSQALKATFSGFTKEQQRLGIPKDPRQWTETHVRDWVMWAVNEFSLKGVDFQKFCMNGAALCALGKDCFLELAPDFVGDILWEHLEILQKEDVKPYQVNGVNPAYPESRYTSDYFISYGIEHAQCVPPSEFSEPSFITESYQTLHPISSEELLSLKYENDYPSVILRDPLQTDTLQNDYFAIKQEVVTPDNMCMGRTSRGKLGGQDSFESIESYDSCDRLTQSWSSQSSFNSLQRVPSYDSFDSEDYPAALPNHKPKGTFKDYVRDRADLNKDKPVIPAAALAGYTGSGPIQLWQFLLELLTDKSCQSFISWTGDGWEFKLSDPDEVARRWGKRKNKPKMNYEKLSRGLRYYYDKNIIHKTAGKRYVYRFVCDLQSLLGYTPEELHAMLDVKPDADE
Technique: protein-binding microarray
Form: double-stranded DNA, one strand shown
Sample: in vitro
Concentration: not given
Setting: k-mer, scored over probes, only values ≥0.25
Reading: higher = stronger binding
Strand	E-score
CCGGAGCA	0.297
GTCCGACA	0.281
CCATTTCC	0.346
GGTCCGGA	0.282
ATTAACCC	0.253
CGCCGGCG	0.344
AATTACAG	0.261
ATACAAAA	0.259
CCTCCCCA	0.275
ACGTTGAA	0.266
ATCCGGCA	0.27
CCGACAAA	0.289
CCCGGTAC	0.384
ATTTCCCA	0.258
GAACGTAA	0.277
ATCCGGGG	0.316
TATACGAA	0.29
CGGTAGCC	0.286
CATTGTTC	0.27
CGGTTGCA	0.264
AACGGTAC	0.339
ACATTTCC	0.307
ACAATGCA	0.257
GTGTCGCA	0.27
ATTCCGAC	0.298

Study 3
Target: Histone acetyltransferase KAT6A, winged helix 1, GST fusion (KAT6A, Homo sapiens, UniProt Q92794, residues 1-85)
Technique: protein binding microarray
Form: double-stranded DNA, one strand shown
Sample: in vitro
Concentration: not given
Setting: 8-mer, flanks averaged, mean of 2 arrays, mostly near background
Reference: not given
Reading: higher = stronger binding
Construct (chain): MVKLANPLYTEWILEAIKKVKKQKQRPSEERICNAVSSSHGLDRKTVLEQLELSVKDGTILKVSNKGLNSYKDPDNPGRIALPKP
Strand	E-score
CTGGCCTA	-0.084
GGGGGGCA	-0.101
ATAGACGA	-0.0447
ATGCATAG	-0.208
CCACGACC	-0.154
ACCAAGAG	-0.207
CAGGGCAG	-0.192
AAACACGA	-0.167
ACCCGAGA	0.00024
AGTTCCAC	-0.138
CAAGGAAG	-0.151
AATCACAT	-0.0864
AGCTTTCC	0.0238
ATATGTCC	-0.0303
CAGTAGCG	0.243
AAACCCCA	-0.33
AAACGCTC	0.12
CATGTCTA	-0.157
CAACTTCA	-0.276
GGCTCTAA	-0.0059
ACACATCT	-0.209
TGGCAAAA	-0.212
TACCTACA	-0.164
CTCCACTA	-0.138
CGATCGCC	0.294

Study 4
Target: Sal-like protein 4, full length isoform B (SALL4, Homo sapiens, UniProt Q9UJQ4-2, residues 1-616)
Technique: universal PBM
Form: double-stranded DNA, one strand shown
Sample: in vitro
Concentration: not given
Setting: 8-mer, flanks averaged, mean of replicates
Reading: higher = stronger binding
Strand	E-score
AGTCTACA	0.0228
CTAAATCA	0.117
GAGGTATA	0.182
AACTCTAA	0.201
CTAGTCGC	-0.201
AAGGTTTA	0.114
CAGTAGAC	0.0103
GAAAAACC	0.0338
TTAAGTAA	0.247
CCGCCGGC	-0.256
CATGCATC	-0.0678
AGTTGCTA	0.173
GAACAGAA	0.0676
AACTGCTC	-0.0776
CCAATTTC	0.169
CTGTGAGA	-0.0685
ATTTCGAA	0.259
TCTCACCA	0.0259
CGGACGAA	-0.0958
ATGCACAC	0.11
CAAATTCG	0.00916
CATTACCC	-0.017
CCCAGGAG	-0.349
CTCAACAG	0.0587
GACATAGC	0.159

A few entries again (study 4):
Strand	E-score
CTGTGAGA	-0.0685
TTAAGTAA	0.247
GACATAGC	0.159
CAAATTCG	0.00916
CCGCCGGC	-0.256
AAGGTTTA	0.114
AACTCTAA	0.201
AGTCTACA	0.0228
ATTTCGAA	0.259
CTAGTCGC	-0.201
GAACAGAA	0.0676
ATGCACAC	0.11
AGTTGCTA	0.173
